{"data": "Results of several laboratories"}
{"SMILES": "CC(C)c1ccc(N(C)c2ccc3c(c2)OCC[C@H]3CNc2cnccc2C(=O)O)cc1", "tested on": "NMC-G1", "test": "cell growth, CellTiter-Glo", "setting": "7 days", "endpoint": "IC50", "result": "≥ 10000 nM"}
{"SMILES": "Nc1ncc(-c2cc(-c3cnn(CC(F)(F)F)c3)ncc2F)nc1C(=O)NC1CNCC(F)C1 (stereo not shown)", "tested on": "DLK", "test": "KINOMEscan competition binding", "setting": "1 µM", "how to read": "relative to: DMSO control", "endpoint": "remaining binding", "result": "0.8%"}
{"SMILES": "Cc1ncsc1-c1ccc(C(C)NC(=O)C2CC(O)CN2C(=O)C(NC(=O)CCCCCCCCCCN2CCCC(Nc3ncc(Cl)c(Nc4ccccc4S(=O)(=O)C(C)C)n3)C2)C(C)(C)C)cc1 (stereo not shown)", "tested on": "22Rv1", "test": "RNA-seq, item: SFR1 mRNA", "setting": "concentration not given", "how to read": "relative to: DMSO", "endpoint": "log2 fold change", "result": -1.58}
{"SMILES": "Cn1ncc2cc(-c3cncc(Cl)c3N3CCC4(CCNC4=O)CC3)ccc21", "tested on": "LS174T", "test": "gene expression, microarray, item: SLC2A4 (GLUT4) mRNA", "setting": "concentration not given, 24 h", "how to read": "relative to: untreated cells", "endpoint": "log2 fold change", "result": 2.68}
{"SMILES": "CNS(=O)(=O)Nc1nccc(Cc2c(C)c3ccc(Oc4ncccc4F)cc3oc2=O)c1F", "tested on": "SKNBE2", "test": "cell viability", "setting": "7 days", "endpoint": "IC50", "result": "3.04 nM"}
{"SMILES": "COC1CN([C@H]2CC[C@H]([C@@]3(C)Oc4c(Cl)cc(C(=O)NCc5c(SC)cc(C)[nH]c5=O)c(C)c4O3)CC2)C1", "test": "RNA-seq, item: RAB19", "test system": "human, whole blood", "setting": "dose not given, 24 h", "how to read": "relative to: pretreatment baseline", "endpoint": "log2 fold change", "result": 2.07}
{"SMILES": "C=CC(=O)N1[C@H](c2ccc3c(c2)OCO3)c2[nH]c3ccccc3c2C[C@@H]1C(=O)N1CCN(C)CC1", "tested on": "human cyclin E1 N112C-3xFLAG:CDK2", "test": "co-IP with TMT proteomics, item: CDKN1A", "setting": "concentration not given, P38936", "how to read": "relative to: wild type DMSO", "endpoint": "relative co-enrichment", "result": "132%"}
{"SMILES": "CCN(C(=O)c1cc(F)ccc1Oc1nncnc1N1CCC2(C1)CN([C@H](CCCN(C)CCOC)C(C)C)C2)C(C)C", "tested on": "SK-OV-3", "test": "cell growth or viability", "setting": "7 days", "endpoint": "GI50", "result": "> 10 µM"}
{"SMILES": "C=CC(=O)Nc1cccc(Cn2ncc3cnc(Nc4cnn(CCOC)c4)nc32)c1", "tested on": "NEK10 human", "test": "binding, KINOMEscan", "setting": "100 nM", "how to read": "lower = stronger binding", "endpoint": "percent of control", "result": "91%"}
{"SMILES": "CN1CCCNC(=O)c2cccc(c2)C(=O)NCCCN(C)CCCNc2cccc3c2C(=O)c2cccc(c2C3=O)NCCC1", "tested on": "SAS", "test": "RNA-Seq, item: VPS50 mRNA", "setting": "1 µM, 6 h", "how to read": "relative to: untreated cells", "endpoint": "log2 fold change", "result": -1.61}
{"note": "Repeated from above:"}
{"SMILES": "COC1CN([C@H]2CC[C@H]([C@@]3(C)Oc4c(Cl)cc(C(=O)NCc5c(SC)cc(C)[nH]c5=O)c(C)c4O3)CC2)C1", "test": "RNA-seq, item: RAB19", "test system": "human, whole blood", "setting": "dose not given, 24 h", "how to read": "relative to: pretreatment baseline", "endpoint": "log2 fold change", "result": 2.07}
